Measurements of several laboratories.
Compare with care: the assays were run in different laboratories. “And” joins repeats or separate records; there may be more than shown.
BRAF: Serine/threonine-protein kinase B-raf (BRAF, Homo sapiens, UniProt P15056)
Chain of UniProt P15056 (whole entry, unmodified, looked up): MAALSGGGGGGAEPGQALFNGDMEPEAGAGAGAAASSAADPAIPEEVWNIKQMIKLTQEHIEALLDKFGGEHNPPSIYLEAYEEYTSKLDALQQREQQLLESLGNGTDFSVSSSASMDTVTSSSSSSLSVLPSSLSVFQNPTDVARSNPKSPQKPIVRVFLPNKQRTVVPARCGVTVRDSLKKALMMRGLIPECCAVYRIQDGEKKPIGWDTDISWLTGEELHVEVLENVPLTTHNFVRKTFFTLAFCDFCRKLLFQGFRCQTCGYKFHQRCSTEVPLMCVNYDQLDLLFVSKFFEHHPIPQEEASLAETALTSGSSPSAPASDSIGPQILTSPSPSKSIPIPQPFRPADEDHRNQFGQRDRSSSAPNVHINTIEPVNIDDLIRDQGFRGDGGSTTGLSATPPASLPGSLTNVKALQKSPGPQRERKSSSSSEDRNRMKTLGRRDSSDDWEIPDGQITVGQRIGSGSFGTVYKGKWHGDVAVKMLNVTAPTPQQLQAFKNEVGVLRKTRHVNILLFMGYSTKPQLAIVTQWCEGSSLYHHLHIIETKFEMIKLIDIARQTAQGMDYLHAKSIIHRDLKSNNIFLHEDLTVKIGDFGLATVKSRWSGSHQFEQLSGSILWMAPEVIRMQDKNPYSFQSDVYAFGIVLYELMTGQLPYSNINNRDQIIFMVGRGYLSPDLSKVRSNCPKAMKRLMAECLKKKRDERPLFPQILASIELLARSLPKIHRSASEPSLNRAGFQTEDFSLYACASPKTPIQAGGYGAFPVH
BRAF V600E: Serine/threonine-protein kinase B-raf (BRAF, Homo sapiens, UniProt P15056, V600E)

Structure (SMILES)	target	assay	conditions	scale	quantity	value
NC(=O)C[C@H]1CCc2sc3ncnc(O[C@H]4CC[C@H](N5CCOCC5)CC4)c3c21	BRAF	enzyme activity, inhibitor	10 µM		inhibition	7%
COc1ccc(C(=O)/C=C/c2ccccc2-c2c[nH]c3ccc(C#N)cc23)c(O)c1	BRAF V600E	enzyme activity, inhibitor	20 µM		inhibition	3%
Cc1cccc(O[C@H]2CCC[C@@H](C(C)CNCc3ccncc3)C2)c1 (relative stereo)	BRAF	cell-free assay	1 µM		inhibition	1%
CCn1cc(C(=O)O)c(=O)c2c(N)c(F)c(NC3CCCCC3)cc21	BRAF	kinase activity	0.1 µM, together with: ATP at Km		inhibition	-11.1%
COc1ccc(O)cc1-c1c[nH]c2ncc(-c3cncc(C(=O)N(C)C)c3)cc12	BRAF	binding, competition with immobilised ligand	0.2 µM		inhibition	2.08%
C=CC(=O)Nc1cccc(-c2cnc3[nH]cc(C(=O)NC(C)(C)C)c3n2)c1	BRAF	kinase activity	0.1 µM		inhibition	-4% and -3%
COCC12C(=O)NC3C4(C(OC)CC1O)C1CC5(O)C(OC)C(O)C(OC(C)=O)(C1C5OC(=O)c1ccccc1)C3(O)C(OC)C24 (centres unmarked)	BRAF V600E	kinase activity, inhibitor, ProQinase kinase profiling	25 µM	relative to: control	remaining activity	104% and 95%
Nc1ncc(-c2cc(-c3cnn(CC(F)(F)F)c3)ncc2F)nc1C(=O)NC1CNCC(F)C1 (centres unmarked)	BRAF	enzyme activity	1 µM	relative to: DMSO control	remaining activity	93.2%
COc1cc(Nc2nc(C)cc(-c3cnn4nc(OC)ccc34)n2)cc(C(F)(F)F)c1	BRAF	inhibitor	1 µM	relative to: control	remaining activity	100%
O=C(Cc1ccc(OCc2ccccc2)cc1)NC1(C(=O)O)CCN(C(=O)c2ccc(-c3cccc(Cl)c3)cc2)CC1	BRAF	enzyme activity, inhibitor	10 µM		activity vs control	118%
O=C(Nc1ccc(Oc2ncnc3[nH]cc(-c4ccccc4)c23)c(F)c1)c1c2n(n(-c3cc(F)ccc3F)c1=O)CCCC2	BRAF	enzyme activity, inhibitor	0.5 µM		inhibition	12%
CN1CCN(Cc2ccc(NC(=O)c3cccc(C#Cc4cnc(N)c5ncccc45)c3)cc2C(F)(F)F)CC1	BRAF V600E	cell-free assay, competition with immobilised ligand	0.5 µM		remaining binding	0.1%
CNC(=O)C[C@H](Cc1ccc(C#N)cc1)NC(=O)c1cc(-c2ccc(CN[C@H](C)c3ccc(C)cc3)o2)ccc1Cl	BRAF	enzyme activity, inhibitor	1 µM		activity vs control	102%
C=C1CCCCCCCCCC(CO)C1=O (centres unmarked)	BRAF	cell-free assay	10 µM		remaining signal	72%

Some of these lines once more:
Structure (SMILES)	target	assay	conditions	scale	quantity	value
Cc1cccc(O[C@H]2CCC[C@@H](C(C)CNCc3ccncc3)C2)c1 (relative stereo)	BRAF	cell-free assay	1 µM		inhibition	1%
COc1ccc(O)cc1-c1c[nH]c2ncc(-c3cncc(C(=O)N(C)C)c3)cc12	BRAF	binding, competition with immobilised ligand	0.2 µM		inhibition	2.08%
